Measurements pooled from the literature.
Protocols differ between the studies behind these lines. Numbers after ± are the reported error.
OXA-58: Beta-lactamase OXA-58 (OXA-58, Acinetobacter baumannii, UniProt Q2TR58)
blaOXA-33: Beta-lactamase (blaOXA-33, Acinetobacter baumannii, UniProt Q8RLA6)
Bcl-2-related protein A1 C113S/P104K: Bcl-2-related protein A1 (Mus musculus, UniProt Q07440, C113S/P104K)
cyp121: Mycocyclosin synthase (cyp121, Mycobacterium tuberculosis, UniProt P9WPP7)
Enpp1: Ectonucleotide pyrophosphatase/phosphodiesterase family member 1 (Enpp1, Mus musculus, UniProt P06802)
folA: Dihydrofolate reductase (folA, Staphylococcus aureus, UniProt P0A017)

Protein sequences, listed by entry. Tags and fused reporters are not part of them. Residues count along the entry.
UniProt Q2TR58, 19-280 limits assumed: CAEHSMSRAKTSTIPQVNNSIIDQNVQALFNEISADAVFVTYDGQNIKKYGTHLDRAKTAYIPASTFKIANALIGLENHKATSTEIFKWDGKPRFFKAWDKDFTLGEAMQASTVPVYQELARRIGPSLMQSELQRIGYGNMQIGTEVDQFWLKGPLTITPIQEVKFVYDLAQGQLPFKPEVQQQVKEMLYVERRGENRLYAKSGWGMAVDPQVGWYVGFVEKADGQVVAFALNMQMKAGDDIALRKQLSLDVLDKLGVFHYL
UniProt Q8RLA6, 21-275 limits assumed: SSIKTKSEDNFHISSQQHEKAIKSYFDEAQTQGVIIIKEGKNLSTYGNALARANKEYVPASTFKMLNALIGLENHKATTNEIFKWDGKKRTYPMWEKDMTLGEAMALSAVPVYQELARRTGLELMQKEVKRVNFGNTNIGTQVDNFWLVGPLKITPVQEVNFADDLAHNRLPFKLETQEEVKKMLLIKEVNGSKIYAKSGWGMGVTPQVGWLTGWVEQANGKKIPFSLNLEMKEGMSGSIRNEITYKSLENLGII
UniProt P9WPP7, whole entry: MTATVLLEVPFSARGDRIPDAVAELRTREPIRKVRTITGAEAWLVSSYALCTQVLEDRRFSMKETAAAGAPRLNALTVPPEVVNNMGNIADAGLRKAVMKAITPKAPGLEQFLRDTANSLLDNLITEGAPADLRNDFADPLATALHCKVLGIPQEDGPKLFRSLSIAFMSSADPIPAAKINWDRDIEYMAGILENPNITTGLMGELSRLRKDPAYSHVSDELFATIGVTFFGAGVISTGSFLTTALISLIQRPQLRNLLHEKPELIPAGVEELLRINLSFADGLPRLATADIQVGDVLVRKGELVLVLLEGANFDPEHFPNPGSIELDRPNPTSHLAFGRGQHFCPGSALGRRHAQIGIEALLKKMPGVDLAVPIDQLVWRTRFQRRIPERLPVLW
UniProt P06802, 92-905 isoform 2 limits assumed: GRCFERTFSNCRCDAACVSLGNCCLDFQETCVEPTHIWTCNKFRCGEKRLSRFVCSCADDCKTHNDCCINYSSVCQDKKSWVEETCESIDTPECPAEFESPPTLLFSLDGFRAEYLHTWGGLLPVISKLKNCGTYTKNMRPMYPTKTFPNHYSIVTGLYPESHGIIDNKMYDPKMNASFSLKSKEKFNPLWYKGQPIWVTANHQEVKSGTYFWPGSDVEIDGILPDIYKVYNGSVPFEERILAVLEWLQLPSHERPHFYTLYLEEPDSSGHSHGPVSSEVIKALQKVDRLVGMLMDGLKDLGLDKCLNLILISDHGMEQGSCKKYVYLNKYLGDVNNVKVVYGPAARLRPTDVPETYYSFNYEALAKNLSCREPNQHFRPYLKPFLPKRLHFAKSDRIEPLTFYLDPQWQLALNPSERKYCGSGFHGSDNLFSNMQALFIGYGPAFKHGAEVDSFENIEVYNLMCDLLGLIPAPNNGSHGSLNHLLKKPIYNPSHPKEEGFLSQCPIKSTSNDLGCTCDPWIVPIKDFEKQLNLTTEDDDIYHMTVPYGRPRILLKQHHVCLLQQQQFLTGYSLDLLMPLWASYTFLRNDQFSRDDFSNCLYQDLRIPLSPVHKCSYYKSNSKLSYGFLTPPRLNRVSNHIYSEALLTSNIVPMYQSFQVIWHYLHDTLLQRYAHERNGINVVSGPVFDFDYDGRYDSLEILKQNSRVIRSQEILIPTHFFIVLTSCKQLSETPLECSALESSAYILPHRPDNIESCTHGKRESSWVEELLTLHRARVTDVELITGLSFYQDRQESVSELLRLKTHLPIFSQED
UniProt P0A017, whole entry: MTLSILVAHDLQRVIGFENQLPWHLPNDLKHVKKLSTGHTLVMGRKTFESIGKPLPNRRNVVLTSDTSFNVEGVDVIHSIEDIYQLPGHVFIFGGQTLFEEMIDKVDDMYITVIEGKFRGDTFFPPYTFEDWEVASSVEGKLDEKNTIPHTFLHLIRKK
UniProt Q6XEC0, 23-265 limits assumed: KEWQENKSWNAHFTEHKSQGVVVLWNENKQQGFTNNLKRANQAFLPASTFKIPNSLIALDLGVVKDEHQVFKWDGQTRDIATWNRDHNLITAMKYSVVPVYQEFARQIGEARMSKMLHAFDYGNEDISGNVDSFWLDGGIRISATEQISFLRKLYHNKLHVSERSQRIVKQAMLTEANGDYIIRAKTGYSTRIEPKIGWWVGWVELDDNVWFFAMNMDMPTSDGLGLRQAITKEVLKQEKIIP
UniProt P35462, whole entry: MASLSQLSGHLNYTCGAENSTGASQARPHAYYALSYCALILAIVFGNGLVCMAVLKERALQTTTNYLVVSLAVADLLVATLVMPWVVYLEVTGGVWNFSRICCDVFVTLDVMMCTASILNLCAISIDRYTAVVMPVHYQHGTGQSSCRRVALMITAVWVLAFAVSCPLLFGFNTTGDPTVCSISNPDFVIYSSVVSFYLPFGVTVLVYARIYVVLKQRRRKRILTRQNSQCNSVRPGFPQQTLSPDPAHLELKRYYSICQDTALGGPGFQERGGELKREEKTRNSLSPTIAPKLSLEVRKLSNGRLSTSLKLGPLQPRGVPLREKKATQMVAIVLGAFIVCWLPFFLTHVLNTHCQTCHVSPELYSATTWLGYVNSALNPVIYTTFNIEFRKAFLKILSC
UniProt P21554, whole entry: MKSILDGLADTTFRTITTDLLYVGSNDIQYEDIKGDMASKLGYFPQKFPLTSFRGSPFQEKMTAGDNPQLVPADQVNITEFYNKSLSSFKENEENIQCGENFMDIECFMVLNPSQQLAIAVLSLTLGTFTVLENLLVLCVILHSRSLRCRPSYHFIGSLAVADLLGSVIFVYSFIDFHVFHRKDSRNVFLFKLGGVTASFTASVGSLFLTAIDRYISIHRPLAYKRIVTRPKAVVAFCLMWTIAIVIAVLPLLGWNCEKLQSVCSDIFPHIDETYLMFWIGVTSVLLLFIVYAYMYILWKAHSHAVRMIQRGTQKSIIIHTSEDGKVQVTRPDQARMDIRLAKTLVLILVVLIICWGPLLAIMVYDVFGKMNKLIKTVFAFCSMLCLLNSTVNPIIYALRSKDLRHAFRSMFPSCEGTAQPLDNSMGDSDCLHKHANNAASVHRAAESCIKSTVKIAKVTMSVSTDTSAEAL
UniProt P34972, whole entry: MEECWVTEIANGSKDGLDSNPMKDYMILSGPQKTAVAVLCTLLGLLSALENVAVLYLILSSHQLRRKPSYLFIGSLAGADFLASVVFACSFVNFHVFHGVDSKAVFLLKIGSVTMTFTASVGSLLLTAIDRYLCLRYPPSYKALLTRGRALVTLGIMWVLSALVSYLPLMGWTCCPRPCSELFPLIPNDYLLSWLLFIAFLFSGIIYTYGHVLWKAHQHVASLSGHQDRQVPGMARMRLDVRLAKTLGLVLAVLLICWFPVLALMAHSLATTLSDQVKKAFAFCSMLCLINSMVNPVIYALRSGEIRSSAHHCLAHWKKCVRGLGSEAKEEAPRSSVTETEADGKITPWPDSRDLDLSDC
UniProt P42866, whole entry: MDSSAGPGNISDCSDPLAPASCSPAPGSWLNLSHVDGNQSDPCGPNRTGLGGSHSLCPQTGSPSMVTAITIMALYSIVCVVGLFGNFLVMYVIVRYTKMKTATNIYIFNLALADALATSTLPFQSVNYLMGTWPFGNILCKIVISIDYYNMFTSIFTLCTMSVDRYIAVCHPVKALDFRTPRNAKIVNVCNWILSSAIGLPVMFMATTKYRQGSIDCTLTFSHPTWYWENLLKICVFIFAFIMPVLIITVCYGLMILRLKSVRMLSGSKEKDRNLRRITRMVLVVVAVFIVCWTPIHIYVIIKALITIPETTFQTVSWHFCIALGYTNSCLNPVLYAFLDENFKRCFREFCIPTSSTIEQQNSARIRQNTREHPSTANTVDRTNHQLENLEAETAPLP
UniProt P35368, whole entry: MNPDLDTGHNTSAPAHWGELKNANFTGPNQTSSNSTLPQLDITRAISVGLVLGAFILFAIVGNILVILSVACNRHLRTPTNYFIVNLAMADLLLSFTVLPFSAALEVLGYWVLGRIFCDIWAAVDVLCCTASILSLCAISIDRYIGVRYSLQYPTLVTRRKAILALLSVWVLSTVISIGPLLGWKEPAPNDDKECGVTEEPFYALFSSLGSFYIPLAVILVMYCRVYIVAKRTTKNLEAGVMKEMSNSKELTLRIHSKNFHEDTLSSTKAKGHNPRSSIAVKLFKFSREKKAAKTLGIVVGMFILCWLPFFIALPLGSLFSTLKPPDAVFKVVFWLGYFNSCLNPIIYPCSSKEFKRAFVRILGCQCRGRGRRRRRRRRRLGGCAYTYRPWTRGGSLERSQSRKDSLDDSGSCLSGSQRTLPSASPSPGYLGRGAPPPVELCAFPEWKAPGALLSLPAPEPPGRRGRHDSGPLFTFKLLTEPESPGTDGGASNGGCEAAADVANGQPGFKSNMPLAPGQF
UniProt P31652, whole entry: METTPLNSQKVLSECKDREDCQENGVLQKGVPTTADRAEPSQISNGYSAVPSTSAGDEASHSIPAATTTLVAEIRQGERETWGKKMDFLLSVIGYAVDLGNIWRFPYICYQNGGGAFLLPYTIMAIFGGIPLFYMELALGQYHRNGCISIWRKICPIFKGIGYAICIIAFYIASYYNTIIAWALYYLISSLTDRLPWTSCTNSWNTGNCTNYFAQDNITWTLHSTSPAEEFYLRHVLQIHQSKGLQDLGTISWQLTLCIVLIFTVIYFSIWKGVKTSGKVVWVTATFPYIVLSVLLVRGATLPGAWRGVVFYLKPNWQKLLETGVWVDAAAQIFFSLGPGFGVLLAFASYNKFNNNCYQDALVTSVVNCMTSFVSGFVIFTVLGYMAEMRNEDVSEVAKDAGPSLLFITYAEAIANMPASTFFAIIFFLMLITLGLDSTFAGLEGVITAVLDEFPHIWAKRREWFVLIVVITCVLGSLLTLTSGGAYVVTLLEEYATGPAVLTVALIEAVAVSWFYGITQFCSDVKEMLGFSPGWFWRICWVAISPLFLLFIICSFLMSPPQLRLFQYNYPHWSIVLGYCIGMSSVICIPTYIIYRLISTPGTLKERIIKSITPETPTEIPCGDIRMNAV
UniProt C7C2U7, 1-163: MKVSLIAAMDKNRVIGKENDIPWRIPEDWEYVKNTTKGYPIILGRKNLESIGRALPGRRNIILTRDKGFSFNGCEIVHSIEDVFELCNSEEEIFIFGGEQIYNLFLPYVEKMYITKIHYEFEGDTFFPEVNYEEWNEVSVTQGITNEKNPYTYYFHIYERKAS
UniProt Q04430, whole entry: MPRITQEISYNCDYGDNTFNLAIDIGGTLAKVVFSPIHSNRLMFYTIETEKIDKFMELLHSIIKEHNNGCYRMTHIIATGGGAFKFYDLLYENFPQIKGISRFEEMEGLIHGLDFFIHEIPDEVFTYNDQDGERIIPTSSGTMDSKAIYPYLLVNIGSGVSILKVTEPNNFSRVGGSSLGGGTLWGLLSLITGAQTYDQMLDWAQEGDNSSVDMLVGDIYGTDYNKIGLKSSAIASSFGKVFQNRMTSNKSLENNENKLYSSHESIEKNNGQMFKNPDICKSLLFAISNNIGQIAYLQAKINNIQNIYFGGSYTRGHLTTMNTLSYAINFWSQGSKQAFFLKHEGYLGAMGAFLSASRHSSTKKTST
UniProt P00811, whole entry, looked up: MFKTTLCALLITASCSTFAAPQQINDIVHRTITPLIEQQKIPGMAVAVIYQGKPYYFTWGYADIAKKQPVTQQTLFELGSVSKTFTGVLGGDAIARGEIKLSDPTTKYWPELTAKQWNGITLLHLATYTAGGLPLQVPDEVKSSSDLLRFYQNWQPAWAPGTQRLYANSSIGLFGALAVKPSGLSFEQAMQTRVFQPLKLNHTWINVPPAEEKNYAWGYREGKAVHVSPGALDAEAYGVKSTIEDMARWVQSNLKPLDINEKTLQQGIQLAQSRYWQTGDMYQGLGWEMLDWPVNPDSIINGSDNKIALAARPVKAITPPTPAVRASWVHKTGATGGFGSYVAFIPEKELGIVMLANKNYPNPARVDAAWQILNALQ
UniProt Q8MXD1, 178-592 limits assumed: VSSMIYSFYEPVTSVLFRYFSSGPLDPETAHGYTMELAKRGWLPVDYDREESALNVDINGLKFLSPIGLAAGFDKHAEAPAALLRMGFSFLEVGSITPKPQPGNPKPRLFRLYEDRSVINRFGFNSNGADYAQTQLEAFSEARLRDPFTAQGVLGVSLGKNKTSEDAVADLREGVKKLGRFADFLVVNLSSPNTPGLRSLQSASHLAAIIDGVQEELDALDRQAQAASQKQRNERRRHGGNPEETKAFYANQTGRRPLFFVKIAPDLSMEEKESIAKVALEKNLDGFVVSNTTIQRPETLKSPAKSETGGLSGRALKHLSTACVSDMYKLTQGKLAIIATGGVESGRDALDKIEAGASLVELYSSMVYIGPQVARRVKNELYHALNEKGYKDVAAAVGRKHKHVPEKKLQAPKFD
UniProt P0AD64, 22-286 limits assumed: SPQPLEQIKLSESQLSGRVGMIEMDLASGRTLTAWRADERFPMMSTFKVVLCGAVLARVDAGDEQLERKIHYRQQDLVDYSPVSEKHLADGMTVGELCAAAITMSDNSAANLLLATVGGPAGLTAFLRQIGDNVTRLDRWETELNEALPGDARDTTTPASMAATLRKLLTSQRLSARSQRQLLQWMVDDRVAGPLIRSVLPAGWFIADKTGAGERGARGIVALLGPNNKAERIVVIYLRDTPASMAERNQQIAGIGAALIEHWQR

NC[C@@H](NC[C@@H]1CCCN1C[C@@H](CO)NC[C@@H](NCCC12CC3CC(CC(C3)C1)C2)c1ccccc1)c1ccccc1
potentiation of amikacin (Klebsiella pneumoniae; bacterial growth; 8 µM, fold shift of IC90, with: amikacin): 1.1 fold

CC(C)(NC(=O)Nc1ccc(Cl)c(-c2nc(C(F)(F)F)cs2)c1)c1cccc(C(N)=NO)c1
Ki (IMPDH 2, Staphylococcus aureus, Y446C; inhibitor; with: 8 mM NAD+, 1.0 mM IMP): 1.17 ± 0.005 µM

O=C(Cc1cccs1)NC(B(O)O)c1cccc(C(=O)O)c1 (centres unmarked)
Ki (ADC-7 beta-lactamase (Acinetobacter baumannii, UniProt Q6DRA1); inhibitor; pH 7.4, room temperature, with: nitrocefin substrate): 0.011 ± 0.001 µM

O=S(=O)(O)c1ccc2cc(S(=O)(=O)O)ccc2c1
Ki (OXA-48 (Klebsiella pneumoniae, UniProt Q6XEC0); enzyme activity, inhibitor): 1.7 mg/L

O[C@H](c1ccc(F)cc1)C(F)(F)CCN1CCC(O)(c2ccc(Cl)cc2)CC1 (racemic)
Ki (DRD3 (Homo sapiens, UniProt P35462)): 5.26 ± 0.837 µM

O=C(NC1CCN(c2ncnc3c2nc(-c2ccccc2Cl)n3-c2ccc(Cl)cc2)CC1)C1CCCCC1
Ki (CNR1 (Homo sapiens, UniProt P21554); binding, radioligand displacement; CHO cell membranes; with: [3H]CP55940): 0.003 µM

CCCCCCCCCCCCNC(=O)N[C@H](C(=O)N[C@H]1/C=C/CCNC(=O)/C=C/[C@H](C)NC1=O)C(C)C
Ki (PSMB6 (Homo sapiens, UniProt P28072); caspase-like activity, inhibitor, Proteasome-Glo; ARD; 24 h): 0.138 ± 0.052 µM

[11CH3]Nc1ccc(C(=O)C2CCN(C3Cc4ccccc4CC3O)CC2)cc1 (single isomer, unassigned)
uptake (Sprague-Dawley rat, kidney; 30 min, with: cyclosporin A 25 mg/kg pretreatment): 1.21 %ID/g

C=C(C)c1cccc(C(C)(C)NC(=O)Nc2ccc(Cl)cc2)c1
Ki (Inosine-5'-monophosphate dehydrogenase (guaB, Staphylococcus aureus, UniProt Q2YVL6); inhibitor; with: 1000 µM IMP and 1000 µM NAD+): 0.0095 ± 0.001 µM

O=C(NC1CCN(c2ncnc3c2nc(-c2ccccc2Cl)n3-c2ccc(Cl)cc2)CC1)C1CCCC1
Ki (CNR2 (Homo sapiens, UniProt P34972); binding, radioligand displacement; CHO cell membranes; with: [3H]CP55940): 0.06 µM

CNC(=O)COCC(=O)NCCCCCCCNC(=O)COCC(=O)N[C@@H]1CC[C@@]2(O)[C@H]3Cc4ccc(O)c5c4[C@@]2(CCN3CC2CC2)[C@H]1O5
Ki (Oprm1 (Mus musculus, UniProt P42866); binding, radioligand competition; MOR-CHO cell membranes; with: [3H]naloxone 2 nM): 0.00918 ± 0.00344 µM

CC(CCN[C@H](CN[C@H](CO)CN1CCC[C@H]1CN[C@H](CN)c1ccccc1)c1ccccc1)c1ccccc1 (some centres unmarked)
potentiation of amikacin (Acinetobacter baumannii; bacterial growth; 8 µM, fold shift of IC90, with: amikacin): 1.7 fold

Nc1cc(S(=O)(=O)O)cc2cc(S(=O)(=O)O)cc(O)c12
Ki (OXA-58; enzyme activity, inhibitor; enzyme 0.1 nM, with: nitrocefin 30 µM): 30 ± 2 µM

NCCNCCSc1ccccc1
pKa (spectrophotometry; pH 6.4): 6.25

O=S(=O)(O)c1ccc(-c2ccc(S(=O)(=O)O)cc2)cc1
Ki (blaOXA-33; enzyme activity, inhibitor; enzyme 0.2 nM, with: nitrocefin 30 µM): 70 ± 3 µM

O=C(O)C(Cc1nn[nH]n1)[C@@H]1CCN[C@H]1C(=O)O (relative stereo)
Ki (native NMDA receptor, rat; binding; rat cortical synaptosomes; with: [3H]CGP 39653): 0.21 µM

CS(=O)(=O)Cc1onc(-c2cccc(Cl)c2)c1-c1ccnc(N[C@@H]2CCN(Cc3nccs3)C2)n1
Ki (cGMP-dependent protein kinase (PKG, Plasmodium falciparum, UniProt Q8I719); kinase activity, inhibitor, IMAP): 0.0446 ± 0.0075 µM

Cc1ccc(N=Nc2c(O)c(C(=O)O)cc3ccccc23)c(S(=O)(=O)O)c1
Ki (Bcl-2-related protein A1 C113S/P104K; binding, inhibitor, fluorescence polarization competition; with: FITC-Noxa peptide, Kd 20 nM): 19.6 µM

C=CC(c1ccc(-c2ccc3c(c2)OCO3)cc1)n1ccnc1 (single isomer, unassigned)
Kd (cyp121; enantiomer E2): 4.6 µM

C[C@H](CS)C(=O)N[C@H](Cc1c[nH]c2ccccc12)C(=O)O
MIC of meropenem (Klebsiella pneumoniae; VIM-1 producing; 10 µM, with: meropenem): 16 mg/L

COc1ccc2[nH]cc(CCN(C)Cc3cccc(Br)c3)c2c1
Ki (HTR2A (Homo sapiens, UniProt P28223); binding): > 10 µM

COc1cccc2c(NCc3ccc(P(=O)(O)O)cc3)c(C#N)cnc12
Ki (Enpp1; enzyme activity, inhibitor, coupled luciferase AMP detection; pH 7.4, with: cGAMP 5 µM): < 0.002 µM

Cc1ccc(C(C)C)cc1Oc1nccc(-c2c(-c3ccc(C(F)(F)F)cc3)ncn2[C@H]2CC[C@@H](N)C2)n1
Ki (Bromodomain-containing protein 4, BD1 (BRD4, Homo sapiens, UniProt O60885); binding): 0.0041 ± 0.0011 µM

CC(C)C[C@@H](NC(=O)[C@H](NC(=O)[C@H]1CCCN1)[C@H](C)O)C(=O)N[C@H](Cc1c[nH]cn1)C(=O)N[C@@H](C(=O)N[C@H](Cc1c[nH]cn1)C(=O)N[C@H](CC(N)=O)C(=O)N[C@H](CCCNC(=N)N)C(=O)N[C@H](CCCNC(=N)N)C(=O)N[C@H](CCCNC(=N)N)C(=O)N[C@H](CCCNC(=N)N)C(=O)N[C@H](CCCNC(=N)N)C(N)=O)[C@H](C)O
incidence of adverse events (phase I single ascending dose; healthy male subjects; 4 mg, total events): 16.7%

CC(C)(NC(=O)Nc1ccc(Cl)cc1)c1cccc(C(=N)NO)c1
Ki (IMPDH 2, Staphylococcus aureus, Y446C; inhibitor; with: 8 mM NAD+, 1.0 mM IMP): 3.8 ± 0.4 µM

COc1ccc(CN[C@@H]2CO[C@H](C(c3ccccc3)c3ccccc3)C[C@H]2O)cc1
inhibition (ADRA1B (Homo sapiens, UniProt P35368); radioligand binding; 10 µM, with: [3H]prazosin): 24.8%

COCCCNc1cc(C(=O)NC2CC3CCC(C2)N3c2ccc(C(=O)NCc3ccccc3)cn2)ccc1C(N)=O (centres unmarked)
Ki (HSP90AA1 (Homo sapiens, UniProt P07900); fluorescence polarization; full-length protein, with: FITC-geldanamycin tracer): 0.44 ± 0.13 µM

Nc1nc2c(ncn2[C@@H]2CC[C@H](OC(C(=O)O)P(=O)(O)O)C2)c(=O)[nH]1 (relative stereo)
Ki (Gag-Pol polyprotein, reverse transcriptase (gag-pol, Human immunodeficiency virus type 1 group M subtype B, UniProt P04585); mixed inhibitor; with: varying dGTP, poly rC.dG): 0.506 µM

C=CC(=O)Nc1cc(-n2c(=O)ccc3cnc4ccc(-c5cn[nH]c5)cc4c32)ccc1C
GI50 (U-937; cell growth; 72 h): 1.4 µM

C[C@@H]1CN(C)CCN1c1nc(-c2ccc(F)cc2)cs1
Ki (Slc6a4 (Rattus norvegicus, UniProt P31652); [3H]5-HT uptake, inhibitor; no preincubation): 0.11 ± 0.02 µM

O=S(=O)(O)c1ccc2c(c1)Cc1cc(S(=O)(=O)O)ccc1-2
Ki (blaOXA-33; enzyme activity, inhibitor; enzyme 0.2 nM, with: nitrocefin 30 µM): 34 ± 1 µM

COc1ccc(NC(=O)CSc2nc3c(N)ncnc3[nH]2)cc1OC
Ki (Enpp1; enzyme activity, inhibitor, coupled luciferase AMP detection; pH 7.4, with: cGAMP 5 µM): > 10 µM

CCc1nc(N)nc(N)c1C#CC(C)c1cc2c(c(-c3ccc(C(=O)O)cc3)c1)OCO2 (centres unmarked)
Ki (Dihydrofolate reductase (Staphylococcus aureus, UniProt C7C2U7); inhibitor): 0.004 ± 0.0006 µM

O=[N+]([O-])c1cc(N=Nc2c(O)ccc3cc(S(=O)(=O)O)ccc23)c(O)c([N+](=O)[O-])c1
Ki (Bcl-2-related protein A1 C113S/P104K; binding, inhibitor, fluorescence polarization competition; with: FITC-Noxa peptide, Kd 20 nM): 3.49 µM

CN(C)c1cc(CN2CCOCC2)nc2nc(NCc3ccc(C(C)(C)C)cc3)nn12
Ki (CAB1 (Saccharomyces cerevisiae, UniProt Q04430); enzyme activity, inhibitor, ADP-Glo, Lineweaver-Burk; with: ATP 1000 µM): 0.012 µM

Cc1cc(O)nc2ccc(NS(=O)(=O)c3cc(Cl)cc(Cl)c3O)cc12
Ki (Beta-lactamase (ampC, Escherichia coli K-12, UniProt P00811); inhibitor, three-point inhibition; 0.01% Triton X-100): 7.33 µM

CCc1nc(N)nc(N)c1C#CC(C)c1cc2c(c(-c3ccc(CC(=O)O)cc3)c1)OCO2 (centres unmarked)
Ki (folA; inhibitor): 0.002 ± 7e-05 µM

CC(=NO)c1cccc(C(C)(C)NC(=O)Nc2ccc(Cl)c(-c3nc(C(F)(F)F)cs3)c2)c1
Ki (IMPDH 2, Staphylococcus aureus, G445S; inhibitor; with: 500 µM NAD+, 1.0 mM IMP): 1.33 ± 0.03 µM

CCCC1c2ccccc2C=NN1C(=O)/C=C/c1cc(Cc2cnc(N)nc2N)cc(OC)c1OC (racemic)
Ki (folA; inhibitor; pH 7): 0.0012 µM

O=c1c2ccc(Oc3ccc(OC(F)(F)F)cc3)cc2[nH]c2cc(F)cc(F)c12
Ki (Dihydroorotate dehydrogenase (Toxoplasma gondii, UniProt Q8MXD1); enzyme activity, competitive inhibitor, DCIP reduction): 2.03 µM

O=C(Cc1cccs1)NCB(O)O
Ki (bla (Klebsiella pneumoniae, UniProt P0AD64); enzyme activity, inhibitor; with: nitrocefin competitor): 42 ± 4 µM

O=C(O)CC1Sc2nnc(-c3cccs3)n2N=C1c1ccc(Cl)cc1 (centres unmarked)
Ki (UDP-galactopyranose mutase (Klebsiella pneumoniae, UniProt Q48485); enzyme activity, competitive inhibitor, Lineweaver-Burk): 12 ± 5 µM

O=C(O)c1ccc(-c2cccc(C(=O)O)c2)cc1
Ki (OXA-58; enzyme activity, inhibitor; enzyme 0.1 nM, with: nitrocefin 30 µM): 45.8 ± 0.6 µM

C=CC(c1ccc(-c2ccc3cc(OC)ccc3c2)cc1)n1ccnc1 (single isomer, unassigned)
Kd (cyp121; enantiomer E2): 0.7 µM

A few entries again:
CCCCCCCCCCCCNC(=O)N[C@H](C(=O)N[C@H]1/C=C/CCNC(=O)/C=C/[C@H](C)NC1=O)C(C)C
Ki (PSMB6 (Homo sapiens, UniProt P28072); caspase-like activity, inhibitor, Proteasome-Glo; ARD; 24 h): 0.138 ± 0.052 µM

[11CH3]Nc1ccc(C(=O)C2CCN(C3Cc4ccccc4CC3O)CC2)cc1 (single isomer, unassigned)
uptake (Sprague-Dawley rat, kidney; 30 min, with: cyclosporin A 25 mg/kg pretreatment): 1.21 %ID/g

C=C(C)c1cccc(C(C)(C)NC(=O)Nc2ccc(Cl)cc2)c1
Ki (Inosine-5'-monophosphate dehydrogenase (guaB, Staphylococcus aureus, UniProt Q2YVL6); inhibitor; with: 1000 µM IMP and 1000 µM NAD+): 0.0095 ± 0.001 µM

O=C(NC1CCN(c2ncnc3c2nc(-c2ccccc2Cl)n3-c2ccc(Cl)cc2)CC1)C1CCCC1
Ki (CNR2 (Homo sapiens, UniProt P34972); binding, radioligand displacement; CHO cell membranes; with: [3H]CP55940): 0.06 µM
